# Results from different studies.
# Every numbered part comes from another study and shows a few of its results, in no order.
# UniProt Q14164, sequence (whole entry, looked up): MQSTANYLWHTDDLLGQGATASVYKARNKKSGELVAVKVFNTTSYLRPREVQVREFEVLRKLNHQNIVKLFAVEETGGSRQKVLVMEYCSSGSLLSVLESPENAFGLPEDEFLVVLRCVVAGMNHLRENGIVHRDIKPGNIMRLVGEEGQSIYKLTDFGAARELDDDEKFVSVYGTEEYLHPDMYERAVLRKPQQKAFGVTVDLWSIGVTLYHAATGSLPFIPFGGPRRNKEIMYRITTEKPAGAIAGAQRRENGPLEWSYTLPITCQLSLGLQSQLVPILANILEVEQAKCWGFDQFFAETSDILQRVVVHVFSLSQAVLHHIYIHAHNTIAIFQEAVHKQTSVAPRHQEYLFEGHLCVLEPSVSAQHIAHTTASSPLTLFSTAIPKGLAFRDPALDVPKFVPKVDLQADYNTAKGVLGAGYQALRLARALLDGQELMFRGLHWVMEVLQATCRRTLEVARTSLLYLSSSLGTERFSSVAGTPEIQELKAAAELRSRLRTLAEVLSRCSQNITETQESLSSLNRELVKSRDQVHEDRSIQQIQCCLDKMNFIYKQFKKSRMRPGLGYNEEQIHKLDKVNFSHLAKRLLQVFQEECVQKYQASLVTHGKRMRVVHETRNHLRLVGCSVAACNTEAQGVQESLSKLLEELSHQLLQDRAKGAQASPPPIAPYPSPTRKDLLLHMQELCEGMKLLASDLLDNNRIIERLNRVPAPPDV
# UniProt Q9NYY3, sequence (whole entry, looked up): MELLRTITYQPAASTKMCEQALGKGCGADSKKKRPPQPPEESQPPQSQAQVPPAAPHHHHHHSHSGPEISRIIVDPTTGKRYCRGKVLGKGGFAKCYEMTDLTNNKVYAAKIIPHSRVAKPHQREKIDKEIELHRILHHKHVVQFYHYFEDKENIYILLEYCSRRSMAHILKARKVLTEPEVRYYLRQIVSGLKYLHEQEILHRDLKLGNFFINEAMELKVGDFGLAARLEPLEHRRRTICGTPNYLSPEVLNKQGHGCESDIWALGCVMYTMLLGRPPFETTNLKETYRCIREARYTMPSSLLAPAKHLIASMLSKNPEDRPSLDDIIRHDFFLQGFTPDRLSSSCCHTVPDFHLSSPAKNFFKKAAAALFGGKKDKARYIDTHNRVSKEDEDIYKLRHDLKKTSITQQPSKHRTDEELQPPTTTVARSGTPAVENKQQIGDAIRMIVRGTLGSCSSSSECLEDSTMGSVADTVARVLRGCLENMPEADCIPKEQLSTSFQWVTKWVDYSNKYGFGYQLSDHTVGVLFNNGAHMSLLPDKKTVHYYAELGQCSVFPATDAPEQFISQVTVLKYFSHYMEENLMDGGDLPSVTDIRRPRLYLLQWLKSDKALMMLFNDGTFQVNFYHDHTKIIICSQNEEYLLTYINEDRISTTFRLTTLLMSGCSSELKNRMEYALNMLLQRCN
# UniProt P07948, sequence (whole entry, looked up): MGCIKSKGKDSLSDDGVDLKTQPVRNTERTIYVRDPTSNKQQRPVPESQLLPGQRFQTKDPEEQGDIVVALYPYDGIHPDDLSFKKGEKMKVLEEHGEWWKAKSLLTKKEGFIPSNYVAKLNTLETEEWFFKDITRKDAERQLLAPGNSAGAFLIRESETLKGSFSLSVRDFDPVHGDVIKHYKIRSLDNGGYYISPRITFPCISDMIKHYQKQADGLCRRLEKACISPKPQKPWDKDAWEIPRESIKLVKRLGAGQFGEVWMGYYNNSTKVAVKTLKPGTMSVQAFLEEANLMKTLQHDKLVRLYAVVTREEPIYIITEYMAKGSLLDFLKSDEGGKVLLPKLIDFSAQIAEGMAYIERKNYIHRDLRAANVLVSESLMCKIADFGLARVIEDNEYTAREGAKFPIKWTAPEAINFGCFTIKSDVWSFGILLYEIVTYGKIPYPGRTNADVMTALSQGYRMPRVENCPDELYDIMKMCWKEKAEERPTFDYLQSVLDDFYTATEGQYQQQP
# UniProt Q7KZI7, sequence (whole entry, looked up): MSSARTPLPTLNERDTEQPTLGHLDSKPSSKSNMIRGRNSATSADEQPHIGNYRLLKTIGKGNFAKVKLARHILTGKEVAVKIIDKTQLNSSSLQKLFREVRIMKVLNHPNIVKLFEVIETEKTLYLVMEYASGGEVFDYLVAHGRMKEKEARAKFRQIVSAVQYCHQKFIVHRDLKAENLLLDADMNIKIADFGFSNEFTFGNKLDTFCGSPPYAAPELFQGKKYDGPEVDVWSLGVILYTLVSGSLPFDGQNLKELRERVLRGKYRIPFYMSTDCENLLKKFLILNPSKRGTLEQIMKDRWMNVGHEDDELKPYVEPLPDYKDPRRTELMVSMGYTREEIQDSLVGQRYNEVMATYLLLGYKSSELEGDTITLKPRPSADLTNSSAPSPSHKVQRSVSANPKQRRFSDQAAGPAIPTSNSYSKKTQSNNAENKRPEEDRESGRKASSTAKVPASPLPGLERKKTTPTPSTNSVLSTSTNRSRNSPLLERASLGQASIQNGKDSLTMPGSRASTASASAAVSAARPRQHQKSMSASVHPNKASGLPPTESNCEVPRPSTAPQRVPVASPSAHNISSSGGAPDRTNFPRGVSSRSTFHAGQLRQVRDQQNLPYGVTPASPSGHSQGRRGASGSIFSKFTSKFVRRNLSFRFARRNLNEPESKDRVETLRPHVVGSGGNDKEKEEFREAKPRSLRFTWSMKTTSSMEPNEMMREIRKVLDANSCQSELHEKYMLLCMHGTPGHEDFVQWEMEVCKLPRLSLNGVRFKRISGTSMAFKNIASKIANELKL
# UniProt Q52WX2, sequence (whole entry, looked up): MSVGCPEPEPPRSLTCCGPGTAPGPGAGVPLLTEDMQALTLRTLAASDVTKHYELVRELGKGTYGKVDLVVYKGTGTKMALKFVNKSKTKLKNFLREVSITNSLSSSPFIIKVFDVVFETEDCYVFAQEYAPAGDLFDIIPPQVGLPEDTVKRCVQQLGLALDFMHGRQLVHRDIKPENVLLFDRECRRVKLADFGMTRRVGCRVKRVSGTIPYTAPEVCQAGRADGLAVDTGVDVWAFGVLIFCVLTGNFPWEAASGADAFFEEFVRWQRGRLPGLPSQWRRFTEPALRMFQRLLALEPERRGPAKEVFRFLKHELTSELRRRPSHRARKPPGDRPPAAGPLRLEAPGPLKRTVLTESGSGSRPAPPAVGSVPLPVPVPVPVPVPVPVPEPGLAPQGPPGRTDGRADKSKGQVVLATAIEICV
# UniProt Q9BXA7, sequence (whole entry, looked up): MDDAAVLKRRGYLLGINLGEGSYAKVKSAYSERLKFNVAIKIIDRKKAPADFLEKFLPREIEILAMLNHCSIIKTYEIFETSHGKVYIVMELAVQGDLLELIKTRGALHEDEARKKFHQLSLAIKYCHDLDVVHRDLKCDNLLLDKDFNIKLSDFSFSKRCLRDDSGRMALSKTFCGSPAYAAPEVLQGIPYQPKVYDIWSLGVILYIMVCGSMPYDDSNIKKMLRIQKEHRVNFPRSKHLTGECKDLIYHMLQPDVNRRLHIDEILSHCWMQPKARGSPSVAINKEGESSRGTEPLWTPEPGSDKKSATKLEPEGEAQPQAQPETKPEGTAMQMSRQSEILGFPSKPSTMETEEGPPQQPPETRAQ

# Block 1 — concentration: 1 µM
# SMILES: CCC1(c2cccc(-c3cn(C)nc3C)c2)C2=C(Nc3n[nH]cc31)C(F)C(C)(C)CC2=O (single isomer, unassigned)
target,read-out,method,relative to,remaining binding [%]
"IKBKE (Homo sapiens, UniProt Q14164)",binding,competition with immobilised ligand,,100
"LYN (Homo sapiens, UniProt P07948)",kinase binding,KINOMEscan,DMSO control,100
"STK39 (Homo sapiens, UniProt Q9UEW8)",kinase binding,KINOMEscan,DMSO control,88
"GSK3B (Homo sapiens, UniProt P49841)",binding,competition with immobilised ligand,,1.1
"ERN1 (Homo sapiens, UniProt O75460)",binding,competition with immobilised ligand,,81
"DYRK1B (Homo sapiens, UniProt Q9Y463)",kinase binding,KINOMEscan,DMSO control,93
"KIT (Homo sapiens, UniProt P10721, T670I/V559D)",kinase binding,KINOMEscan,DMSO control,84
"SBK1 (Homo sapiens, UniProt Q52WX2)",binding,competition with immobilised ligand,,100
"ROCK2 (Homo sapiens, UniProt O75116)",kinase binding,KINOMEscan,DMSO control,76
"STK35 (Homo sapiens, UniProt Q8TDR2)",binding,competition with immobilised ligand,,100
"PRKACA (Homo sapiens, UniProt P17612)",kinase binding,KINOMEscan,DMSO control,100
"Tyrosine-protein kinase JAK3, JH1 (JAK3, Homo sapiens, UniProt P52333)",binding,competition with immobilised ligand,,100
"PIK3CA (Homo sapiens, UniProt P42336, H1047Y)",binding,competition with immobilised ligand,,100
"IRAK3 (Homo sapiens, UniProt Q9Y616)",binding,competition with immobilised ligand,,82

# Block 2 — read-out: kinase activity
# SMILES: CN(C1COC1)C(C)(C)/C=C(\C#N)C(=O)N1CCC[C@H]1Cn1nc(-c2ccc(Oc3ccccc3)cc2F)c2c(N)ncnc21
target,concentration,inhibition [%]
"IRAK4 (Homo sapiens, UniProt Q9NWZ3)",1 µM,0
"FLT4 (Homo sapiens, UniProt P35916)",0.1 µM,3
"BRSK2 (Homo sapiens, UniProt Q8IWQ3)",1 µM,-2
"PRKD2 (Homo sapiens, UniProt Q9BZL6)",0.1 µM,14
"NEK9 (Homo sapiens, UniProt Q8TD19)",0.1 µM,1
"Cyclin-dependent kinase 2, with cyclin E (CDK2, Homo sapiens, UniProt P24941)",0.1 µM,-3
"TAOK3 (Homo sapiens, UniProt Q9H2K8)",1 µM,3
"ZAP70 (Homo sapiens, UniProt P43403)",1 µM,6
"TNK1 (Homo sapiens, UniProt Q13470)",1 µM,-1
"RPS6KB2 (Homo sapiens, UniProt Q9UBS0)",0.1 µM,-3
"MARK2 (Homo sapiens, UniProt Q7KZI7)",1 µM,3
"DDR2 (Homo sapiens, UniProt Q16832)",1 µM,5
"TSSK1B (Homo sapiens, UniProt Q9BXA7)",1 µM,2
"BTK (Homo sapiens, UniProt Q06187)",1 µM,98
"PLK2 (Homo sapiens, UniProt Q9NYY3)",0.1 µM,14

# Block 3 — read-out: thermal unfolding; method: differential scanning fluorimetry; concentration: 5.5 µM; direction: higher = more unfolded
# SMILES: C[C@@H]1CN(c2ccc(-c3cc(C(=O)NCCOCCOCCOCCOCCNC(=O)/C=C/c4[nH]cc(C(=O)N[C@@H](CC(N)=O)c5ccc(F)c(Cl)c5)c4-c4ccc(Cl)cc4F)ccc3F)cc2NC(=O)c2c[nH]c(=O)cc2C(F)(F)F)C[C@H](C)N1C
# DCAF1: DDB1- and CUL4-associated factor 1 (DCAF1, Homo sapiens, UniProt Q9Y4B6)
# UniProt Q9Y4B6, sequence (whole entry, looked up): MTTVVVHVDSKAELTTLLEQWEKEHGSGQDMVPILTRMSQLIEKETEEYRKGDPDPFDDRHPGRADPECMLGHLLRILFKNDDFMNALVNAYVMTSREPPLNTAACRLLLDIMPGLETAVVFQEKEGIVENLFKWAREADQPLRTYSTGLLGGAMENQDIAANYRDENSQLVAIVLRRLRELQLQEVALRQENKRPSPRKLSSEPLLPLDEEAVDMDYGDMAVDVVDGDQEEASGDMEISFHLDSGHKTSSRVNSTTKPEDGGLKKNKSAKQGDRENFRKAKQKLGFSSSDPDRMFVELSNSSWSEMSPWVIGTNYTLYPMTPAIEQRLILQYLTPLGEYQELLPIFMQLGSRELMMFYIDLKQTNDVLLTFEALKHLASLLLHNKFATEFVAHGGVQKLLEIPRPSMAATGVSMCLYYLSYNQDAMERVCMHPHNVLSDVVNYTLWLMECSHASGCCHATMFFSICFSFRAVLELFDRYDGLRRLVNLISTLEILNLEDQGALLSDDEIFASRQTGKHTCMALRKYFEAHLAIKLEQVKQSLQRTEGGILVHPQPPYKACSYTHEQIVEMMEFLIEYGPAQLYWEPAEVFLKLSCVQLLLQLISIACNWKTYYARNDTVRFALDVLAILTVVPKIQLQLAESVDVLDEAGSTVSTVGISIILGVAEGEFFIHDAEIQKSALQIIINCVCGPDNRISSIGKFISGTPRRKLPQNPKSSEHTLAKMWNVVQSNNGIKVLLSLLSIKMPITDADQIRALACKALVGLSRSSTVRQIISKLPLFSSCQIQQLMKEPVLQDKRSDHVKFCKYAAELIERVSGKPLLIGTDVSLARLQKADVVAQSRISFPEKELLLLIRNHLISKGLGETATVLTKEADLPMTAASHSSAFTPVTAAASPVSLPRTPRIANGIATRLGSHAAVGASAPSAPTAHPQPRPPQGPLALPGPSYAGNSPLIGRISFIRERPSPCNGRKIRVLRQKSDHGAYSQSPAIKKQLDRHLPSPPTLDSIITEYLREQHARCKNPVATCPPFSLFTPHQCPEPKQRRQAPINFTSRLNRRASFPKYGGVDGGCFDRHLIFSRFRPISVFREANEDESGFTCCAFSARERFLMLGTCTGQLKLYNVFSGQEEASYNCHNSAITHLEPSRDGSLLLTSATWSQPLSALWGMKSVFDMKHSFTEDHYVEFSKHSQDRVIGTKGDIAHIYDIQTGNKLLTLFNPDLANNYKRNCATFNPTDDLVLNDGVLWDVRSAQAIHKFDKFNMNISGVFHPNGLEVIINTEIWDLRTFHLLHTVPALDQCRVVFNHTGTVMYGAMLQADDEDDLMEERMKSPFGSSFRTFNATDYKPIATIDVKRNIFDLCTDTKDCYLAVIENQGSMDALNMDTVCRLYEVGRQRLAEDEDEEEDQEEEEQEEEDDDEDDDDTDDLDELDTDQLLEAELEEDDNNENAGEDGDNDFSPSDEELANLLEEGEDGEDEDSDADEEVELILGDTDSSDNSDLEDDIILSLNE
# WDR5: WD repeat-containing protein 5 (WDR5, Homo sapiens, UniProt P61964)
target,temperature,SYPRO Orange fluorescence [a.u.]
DCAF1,37.4 °C,10700
DCAF1,43.6 °C,12500
DCAF1,30.6 °C,9570
WDR5,48.8 °C,16000
DCAF1,47.2 °C,14000
WDR5,32.8 °C,12800
WDR5,89.41 °C,51800
DCAF1,69.61 °C,56300

# Block 4 — sample: plasma; route: intravenous; dose: 1 mg/kg
# SMILES: Cc1ccc(O)c(C)c1-c1cnc2[nH]c(-c3cnc(N4CCC5(CC4)CC(N4CCN(c6ccc(N[C@H]7CCC(=O)NC7=O)cc6F)CC4)CO5)nc3)cc2c1C#N (single isomer, unassigned)
species,clearance
male Sprague-Dawley rat,1.06 L/h/kg
male cynomolgus monkey,1.16 L/h/kg
male beagle dog,0.432 L/h/kg

# Repeated from above (block 2):
target,concentration,inhibition [%]
"TAOK3 (Homo sapiens, UniProt Q9H2K8)",1 µM,3
"IRAK4 (Homo sapiens, UniProt Q9NWZ3)",1 µM,0
"PRKD2 (Homo sapiens, UniProt Q9BZL6)",0.1 µM,14
"Cyclin-dependent kinase 2, with cyclin E (CDK2, Homo sapiens, UniProt P24941)",0.1 µM,-3
"TSSK1B (Homo sapiens, UniProt Q9BXA7)",1 µM,2
